Measured values pooled from the literature.
Parts stem from different laboratories: compare values within a part only. Substitutions count along the parent as printed.
Chain of UniProt Q8IU85 (whole entry, looked up): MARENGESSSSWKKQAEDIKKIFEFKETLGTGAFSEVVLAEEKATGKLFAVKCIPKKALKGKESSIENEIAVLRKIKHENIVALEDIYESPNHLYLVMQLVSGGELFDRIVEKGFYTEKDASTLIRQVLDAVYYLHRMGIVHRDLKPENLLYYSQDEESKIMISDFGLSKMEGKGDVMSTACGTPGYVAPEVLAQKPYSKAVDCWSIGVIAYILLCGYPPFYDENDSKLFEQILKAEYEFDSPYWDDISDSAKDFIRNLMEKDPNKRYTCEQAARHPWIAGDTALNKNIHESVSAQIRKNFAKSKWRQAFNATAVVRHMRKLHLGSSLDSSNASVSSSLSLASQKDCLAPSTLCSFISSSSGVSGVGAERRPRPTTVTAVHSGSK
Chain of UniProt Q9UM73 (whole entry, unmodified, looked up): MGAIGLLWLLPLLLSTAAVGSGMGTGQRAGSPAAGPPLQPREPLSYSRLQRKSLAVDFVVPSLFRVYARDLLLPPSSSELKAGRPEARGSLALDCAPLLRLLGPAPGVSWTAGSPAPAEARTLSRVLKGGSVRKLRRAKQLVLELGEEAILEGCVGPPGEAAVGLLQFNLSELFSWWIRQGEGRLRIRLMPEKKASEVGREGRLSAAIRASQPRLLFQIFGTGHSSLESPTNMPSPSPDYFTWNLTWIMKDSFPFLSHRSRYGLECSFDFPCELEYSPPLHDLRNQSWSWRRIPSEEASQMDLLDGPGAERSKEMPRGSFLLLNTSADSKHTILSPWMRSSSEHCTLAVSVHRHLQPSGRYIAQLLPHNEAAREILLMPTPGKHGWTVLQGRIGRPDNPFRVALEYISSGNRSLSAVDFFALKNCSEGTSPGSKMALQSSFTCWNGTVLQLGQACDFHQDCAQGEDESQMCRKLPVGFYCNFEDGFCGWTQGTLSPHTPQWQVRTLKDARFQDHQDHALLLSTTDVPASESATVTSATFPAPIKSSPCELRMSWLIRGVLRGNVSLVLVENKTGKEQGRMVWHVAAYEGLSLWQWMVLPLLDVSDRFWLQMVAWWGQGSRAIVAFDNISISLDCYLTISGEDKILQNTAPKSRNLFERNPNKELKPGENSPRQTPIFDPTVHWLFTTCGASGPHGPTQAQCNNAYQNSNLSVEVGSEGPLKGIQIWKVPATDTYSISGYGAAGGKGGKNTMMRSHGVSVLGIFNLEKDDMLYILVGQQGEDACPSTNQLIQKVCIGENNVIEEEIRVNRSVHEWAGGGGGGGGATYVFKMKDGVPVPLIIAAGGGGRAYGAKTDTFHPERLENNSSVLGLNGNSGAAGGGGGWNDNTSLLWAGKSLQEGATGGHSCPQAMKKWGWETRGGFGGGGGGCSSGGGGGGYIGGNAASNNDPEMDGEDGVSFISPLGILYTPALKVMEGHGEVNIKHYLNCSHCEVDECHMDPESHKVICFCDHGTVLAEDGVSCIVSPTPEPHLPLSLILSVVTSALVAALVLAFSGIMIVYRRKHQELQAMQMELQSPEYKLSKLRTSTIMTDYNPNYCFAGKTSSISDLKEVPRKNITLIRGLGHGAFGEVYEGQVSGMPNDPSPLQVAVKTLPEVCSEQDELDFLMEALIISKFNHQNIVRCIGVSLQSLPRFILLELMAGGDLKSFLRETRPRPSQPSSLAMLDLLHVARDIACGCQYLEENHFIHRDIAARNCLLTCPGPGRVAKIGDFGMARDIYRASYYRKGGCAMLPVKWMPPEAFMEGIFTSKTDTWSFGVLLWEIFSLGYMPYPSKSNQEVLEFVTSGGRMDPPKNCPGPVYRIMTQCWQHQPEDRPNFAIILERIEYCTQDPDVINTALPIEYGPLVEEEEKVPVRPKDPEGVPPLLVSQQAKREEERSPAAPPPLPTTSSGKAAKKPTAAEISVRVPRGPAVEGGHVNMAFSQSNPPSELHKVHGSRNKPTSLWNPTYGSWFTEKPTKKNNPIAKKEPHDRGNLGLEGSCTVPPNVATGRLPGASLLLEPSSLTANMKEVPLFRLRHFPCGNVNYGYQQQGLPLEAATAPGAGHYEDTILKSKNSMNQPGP
Chain of UniProt P43403 (whole entry, looked up): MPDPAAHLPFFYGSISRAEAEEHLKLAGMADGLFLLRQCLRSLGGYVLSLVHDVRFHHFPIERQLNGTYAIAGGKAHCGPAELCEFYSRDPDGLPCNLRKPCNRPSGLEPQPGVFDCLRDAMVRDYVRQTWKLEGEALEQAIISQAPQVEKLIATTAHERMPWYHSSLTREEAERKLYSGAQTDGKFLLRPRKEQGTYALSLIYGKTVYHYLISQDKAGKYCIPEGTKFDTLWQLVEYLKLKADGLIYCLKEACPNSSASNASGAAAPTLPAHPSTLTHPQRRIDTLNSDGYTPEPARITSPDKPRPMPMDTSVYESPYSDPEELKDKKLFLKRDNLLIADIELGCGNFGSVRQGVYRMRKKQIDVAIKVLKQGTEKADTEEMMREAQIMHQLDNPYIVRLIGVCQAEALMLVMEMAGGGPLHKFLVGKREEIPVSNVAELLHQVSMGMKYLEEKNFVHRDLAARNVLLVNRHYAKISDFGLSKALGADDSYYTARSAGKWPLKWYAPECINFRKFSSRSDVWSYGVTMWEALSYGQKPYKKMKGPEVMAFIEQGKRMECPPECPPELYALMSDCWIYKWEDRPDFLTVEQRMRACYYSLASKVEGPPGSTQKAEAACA
Chain of UniProt Q96RR4 (whole entry, looked up): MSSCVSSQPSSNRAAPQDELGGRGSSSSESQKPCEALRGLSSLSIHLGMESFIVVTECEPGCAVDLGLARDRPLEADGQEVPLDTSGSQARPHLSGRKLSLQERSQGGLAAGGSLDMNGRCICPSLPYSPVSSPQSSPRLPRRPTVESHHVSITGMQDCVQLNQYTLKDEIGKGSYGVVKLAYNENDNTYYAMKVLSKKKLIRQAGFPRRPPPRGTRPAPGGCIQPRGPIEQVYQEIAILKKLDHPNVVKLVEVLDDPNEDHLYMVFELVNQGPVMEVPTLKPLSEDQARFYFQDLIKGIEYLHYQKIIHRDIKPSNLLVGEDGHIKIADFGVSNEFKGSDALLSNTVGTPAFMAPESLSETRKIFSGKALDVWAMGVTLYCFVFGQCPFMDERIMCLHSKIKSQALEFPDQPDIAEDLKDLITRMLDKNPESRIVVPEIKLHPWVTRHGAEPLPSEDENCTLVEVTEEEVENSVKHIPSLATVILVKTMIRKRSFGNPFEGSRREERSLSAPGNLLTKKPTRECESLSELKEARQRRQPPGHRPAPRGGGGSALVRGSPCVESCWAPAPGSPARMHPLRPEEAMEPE
Chain of UniProt Q92630 (whole entry, looked up): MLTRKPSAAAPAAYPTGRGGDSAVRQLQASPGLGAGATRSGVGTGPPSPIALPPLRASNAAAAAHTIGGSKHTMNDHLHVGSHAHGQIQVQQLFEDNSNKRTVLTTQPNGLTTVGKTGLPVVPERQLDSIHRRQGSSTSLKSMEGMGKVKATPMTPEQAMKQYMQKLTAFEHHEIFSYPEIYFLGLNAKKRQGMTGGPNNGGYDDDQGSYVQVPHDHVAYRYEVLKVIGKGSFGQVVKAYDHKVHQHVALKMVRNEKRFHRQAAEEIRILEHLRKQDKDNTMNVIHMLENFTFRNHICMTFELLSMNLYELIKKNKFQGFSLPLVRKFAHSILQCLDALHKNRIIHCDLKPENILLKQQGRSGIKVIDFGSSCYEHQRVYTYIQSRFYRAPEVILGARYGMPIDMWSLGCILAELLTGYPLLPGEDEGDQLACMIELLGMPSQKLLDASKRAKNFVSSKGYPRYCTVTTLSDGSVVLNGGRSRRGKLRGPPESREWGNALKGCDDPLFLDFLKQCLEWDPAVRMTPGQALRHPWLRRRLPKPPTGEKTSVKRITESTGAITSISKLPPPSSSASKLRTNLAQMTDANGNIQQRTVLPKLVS
Chain of UniProt P20794 (whole entry, looked up): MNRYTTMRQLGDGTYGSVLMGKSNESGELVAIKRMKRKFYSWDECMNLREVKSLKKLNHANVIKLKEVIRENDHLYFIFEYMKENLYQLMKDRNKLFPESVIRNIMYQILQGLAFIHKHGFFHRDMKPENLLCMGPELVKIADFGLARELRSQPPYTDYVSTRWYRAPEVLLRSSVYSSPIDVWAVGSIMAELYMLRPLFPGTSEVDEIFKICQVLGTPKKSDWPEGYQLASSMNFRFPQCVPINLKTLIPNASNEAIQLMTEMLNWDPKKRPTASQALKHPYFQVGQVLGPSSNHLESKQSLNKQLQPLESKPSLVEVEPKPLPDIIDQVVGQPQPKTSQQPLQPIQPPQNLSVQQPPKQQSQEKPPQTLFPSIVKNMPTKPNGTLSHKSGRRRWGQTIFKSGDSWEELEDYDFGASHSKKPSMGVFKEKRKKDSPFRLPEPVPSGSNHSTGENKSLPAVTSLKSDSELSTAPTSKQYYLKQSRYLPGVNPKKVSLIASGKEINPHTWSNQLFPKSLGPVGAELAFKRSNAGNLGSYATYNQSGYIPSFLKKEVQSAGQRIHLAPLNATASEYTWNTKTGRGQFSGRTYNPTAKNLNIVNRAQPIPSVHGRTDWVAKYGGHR

Study 1
Target: Microphthalmia-associated transcription factor, full length (MITF, Homo sapiens, UniProt O75030-10, residues 1-413)
Method: protein-binding microarray
Form: hairpin DNA
Medium: in vitro
Concentration: not given
Notes: whole hairpin DNA, median over replicate spots
Reference: not given
Reading: higher = stronger binding
With `CACTTAGCGCGTGATTTTGGTCCTCCAAAATCACGCGCTAAGTGACACTC (5mC at 36)` the median fluorescence was 19000 a.u.
For `CACTCAGCACGTGATTTTGGTCCTCCAAAATCACGTGCTGAGTGACACTC (5mC at 5)`, the median fluorescence was 26200 a.u.
The median fluorescence of `CACTTAGCCGGTGATTTTGGTCCTCCAAAATCACCGGCTAAGTGACACTC (5mC at 9)` is reported as 4800 a.u.
For `GAGGCCTAGCACGTGCGGCCTCCTGGCCGCACGTGCTAGGCCTCACACTC (5mC at 16)`, the median fluorescence was 18200 a.u.
`CACTTAGCAGGTGATTTTGGTCCTCCAAAATCACCTGCTAAGTGACACTC` gave a median fluorescence of 9670 a.u.
`CACTTAGCACGTTATTTTGGTCCTCCAAAATAACGTGCTAAGTGACACTC` gave a median fluorescence of 5400 a.u.
With `GAGGCCTAGCACGTGCGGCCTCCTGGCCGCACGTGCTAGGCCTCACACTC` the median fluorescence was 20000 a.u.
With `CACTTACGACGTGATTTTGGTCCTCCAAAATCACGTCGTAAGTGACACTC (5mC at 7 37)` the median fluorescence was 5920 a.u.

Study 2
Target: ABI1, truncated, D143A, DHFR fusion (Arabidopsis thaliana, UniProt P49597)
Method: DHFR PCA, dose-response
Medium: yeast
Notes: Hill fit, not affinity
Together with: (+)-ABA, dose series
Reading: lower = more sensitive
Starting sequence: PYL1, truncated, DHFR fusion (Arabidopsis thaliana, UniProt Q8VZS8); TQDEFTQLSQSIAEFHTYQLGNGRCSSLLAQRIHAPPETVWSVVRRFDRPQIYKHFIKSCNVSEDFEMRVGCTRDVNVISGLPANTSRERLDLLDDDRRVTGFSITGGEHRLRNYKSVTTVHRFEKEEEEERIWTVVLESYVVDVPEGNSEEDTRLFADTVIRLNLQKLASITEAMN
`G107V` gave an ABA EC50 of 1750 µM.
`K126D` has an ABA EC50 of 1.29 µM.
`L93I` has an ABA EC50 of 0.539 µM.
`N85F` gave an ABA EC50 of 62.7 µM.
With `V161I` the ABA EC50 was 0.201 µM.
With `N177T` the ABA EC50 was 0.83 µM.
`Q2L` gave an ABA EC50 of 7.49 µM.
With `A84W` the ABA EC50 was 3.79 µM.

Study 3
Target: Mitogen-activated protein kinase 11 (MAPK11, Homo sapiens, UniProt Q15759)
Chain of UniProt Q15759 (whole entry, looked up): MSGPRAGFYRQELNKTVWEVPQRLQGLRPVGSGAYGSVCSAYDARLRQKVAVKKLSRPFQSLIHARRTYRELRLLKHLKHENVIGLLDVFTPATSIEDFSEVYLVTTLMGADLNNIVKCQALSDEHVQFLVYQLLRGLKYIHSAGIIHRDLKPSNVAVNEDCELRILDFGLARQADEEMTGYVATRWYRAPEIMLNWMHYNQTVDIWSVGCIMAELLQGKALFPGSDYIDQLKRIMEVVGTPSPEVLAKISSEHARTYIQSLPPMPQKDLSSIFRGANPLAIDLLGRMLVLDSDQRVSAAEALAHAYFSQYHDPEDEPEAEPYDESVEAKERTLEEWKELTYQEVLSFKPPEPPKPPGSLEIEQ
Read-out: enzyme activity
Action: inhibitor
Concentration: 0.5 µM
Reference: control
`COc1ccc(C(=O)Nc2sc3c(c2C(N)=O)CCCC3)cc1OC` gave a remaining activity of 104%.
For `COc1cc2nccc(Oc3ccc(NC(=S)NC(=O)c4ccccc4C)cc3)c2cc1OC`, the remaining activity was 89.3%.
The remaining activity of `O=c1c2ccccc2[nH]c(=S)n1CCN1CCC(=C(c2ccc(F)cc2)c2ccc(F)cc2)CC1` is reported as 99.3%.
The remaining activity of `O=C(Nc1cccc(Nc2cc(Nc3cccc(C(F)(F)F)c3)ncn2)c1)C1CC1` is reported as 97.2%.
`Cc1ccc(Nc2nccc(N(C)c3ccc4c(C)n(C)nc4c3)n2)cc1S(N)(=O)=O` has a remaining activity of 93.3%.
`Cc1cccc(-c2[nH]c(C(C)(C)C)nc2-c2ccc3c(c2)OCO3)n1` has a remaining activity of 93%.
For `CO[C@H]1C[C@@H]2CC[C@@H](C)[C@@](O)(O2)C(=O)C(=O)N2CCCC[C@H]2C(=O)O[C@H]([C@H](C)C[C@@H]2CC[C@@H](O)[C@H](OC)C2)CC(=O)[C@H](C)/C=C(\C)[C@@H](O)[C@@H](OC)C(=O)[C@H](C)C[C@H](C)/C=C/C=C/C=C/1C`, the remaining activity was 113%.
The remaining activity of `COc1cc2ncnc(Nc3ccc(Oc4ccccc4)cc3)c2cc1OC` is reported as 105%.
`Nc1ccc2ncnc(NCCc3ccc(Oc4ccccc4)cc3)c2c1` gave a remaining activity of 98.1%.
`C#Cc1cccc(Nc2ncnc3cc(OCCOC)c(OCCOC)cc23)c1` has a remaining activity of 97.8%.
`O=C(CCCc1ccc(-c2ccccc2F)cc1)Nc1ccc(O)cc1` gave a remaining activity of 79.7%.
With `N#CC(C#N)=C(N)/C(C#N)=C/c1ccc(O)cc1` the remaining activity was 100%.
`CCOC(=O)c1c(C)[nH]c(/C=C2\C(=O)Nc3ccccc32)c1C` gave a remaining activity of 97.5%.
For `Cc1nc(-c2ccccc2)c(-c2ccncc2)o1`, the remaining activity was 101%.

Study 4
Compound: CC(=O)C1=C(C)N(c2cccc(C(F)(F)F)c2)C(=O)N[C@@H]1c1ccc(C#N)nc1
Method: competition with immobilised ligand
Concentration: 1 µM
The remaining binding was 100% (RET (Homo sapiens, UniProt P07949, M918T); cell-free assay).
For FLT3 (Homo sapiens, UniProt P36888, K663Q); cell-free assay: remaining binding read 100%.
It gave 71.7% for remaining binding (ACVRL1 (Homo sapiens, UniProt P37023); binding).
It gave 100% for remaining binding (CAMKK2 (Homo sapiens, UniProt Q96RR4); cell-free assay).
ALK (Homo sapiens, UniProt Q9UM73, C1156Y); cell-free assay — remaining binding: 100%.
The remaining binding was 98.9% (MAPK1 (Homo sapiens, UniProt P28482); cell-free assay).
It gave 100% for remaining binding (Tyrosine-protein kinase ABL1, phosphorylated (ABL1, Homo sapiens, UniProt P00519, H396P); cell-free assay).
The remaining binding was 100% (EPHA4 (Homo sapiens, UniProt P54764); cell-free assay).
STK32A (Homo sapiens, UniProt Q8WU08); cell-free assay — remaining binding: 100%.
It gave 80.7% for remaining binding (LRRK2 (Homo sapiens, UniProt Q5S007); cell-free assay).
For RIPK4 (Homo sapiens, UniProt P57078); cell-free assay: remaining binding read 100%.
For EGFR (Homo sapiens, UniProt P00533, A750P/del747-749); cell-free assay: remaining binding read 80%.
It gave 88.1% for remaining binding (ZAP70 (Homo sapiens, UniProt P43403); cell-free assay).
It gave 96.9% for remaining binding (MAP3K20 (Homo sapiens, UniProt Q9NYL2); cell-free assay).
It gave 83.8% for remaining binding (DAPK3 (Homo sapiens, UniProt O43293); cell-free assay).
The remaining binding was 100% (DYRK2 (Homo sapiens, UniProt Q92630); cell-free assay).
The remaining binding was 82.7% (PLK4 (Homo sapiens, UniProt O00444); cell-free assay).
It gave 100% for remaining binding (KIT (Homo sapiens, UniProt P10721, D816H); cell-free assay).
For EGFR (Homo sapiens, UniProt P00533, L858R/T790M); cell-free assay: remaining binding read 100%.
The remaining binding was 99.2% (Ribosomal protein S6 kinase alpha-3, C-terminal kinase domain (RPS6KA3, Homo sapiens, UniProt P51812); cell-free assay).
HIPK3 (Homo sapiens, UniProt Q9H422); cell-free assay — remaining binding: 100%.
For MAK (Homo sapiens, UniProt P20794); cell-free assay: remaining binding read 82.5%.
The remaining binding was 100% (CSNK1G3 (Homo sapiens, UniProt Q9Y6M4); cell-free assay).
The remaining binding was 87.5% (RIOK1 (Homo sapiens, UniProt Q9BRS2); cell-free assay).
It gave 79.4% for remaining binding (CAMK1D (Homo sapiens, UniProt Q8IU85); cell-free assay).

A few entries again (study 4):
The remaining binding was 100% (EPHA4 (Homo sapiens, UniProt P54764); cell-free assay).
STK32A (Homo sapiens, UniProt Q8WU08); cell-free assay — remaining binding: 100%.
It gave 80.7% for remaining binding (LRRK2 (Homo sapiens, UniProt Q5S007); cell-free assay).
For RIPK4 (Homo sapiens, UniProt P57078); cell-free assay: remaining binding read 100%.
For EGFR (Homo sapiens, UniProt P00533, A750P/del747-749); cell-free assay: remaining binding read 80%.
